{"data": "Published values gathered from unrelated publications", "note": "Compare with care: the assays were run in different laboratories. Several values in a cell are separate wells, animals, samples, runs or records. ± marks the error that the study gave.", "sequence of UniProt Q9Y3R4 (whole entry, looked up)": "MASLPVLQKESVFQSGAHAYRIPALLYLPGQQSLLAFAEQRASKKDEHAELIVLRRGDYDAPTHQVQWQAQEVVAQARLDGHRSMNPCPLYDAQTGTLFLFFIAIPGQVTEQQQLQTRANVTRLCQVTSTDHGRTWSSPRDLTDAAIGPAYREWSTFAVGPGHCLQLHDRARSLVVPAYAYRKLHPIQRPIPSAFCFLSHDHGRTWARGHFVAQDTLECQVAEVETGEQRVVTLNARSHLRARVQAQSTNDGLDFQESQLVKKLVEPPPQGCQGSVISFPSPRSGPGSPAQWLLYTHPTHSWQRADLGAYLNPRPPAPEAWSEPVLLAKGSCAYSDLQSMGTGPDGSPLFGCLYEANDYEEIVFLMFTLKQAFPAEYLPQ", "sequence of UniProt P08510 (whole entry, unmodified, looked up)": "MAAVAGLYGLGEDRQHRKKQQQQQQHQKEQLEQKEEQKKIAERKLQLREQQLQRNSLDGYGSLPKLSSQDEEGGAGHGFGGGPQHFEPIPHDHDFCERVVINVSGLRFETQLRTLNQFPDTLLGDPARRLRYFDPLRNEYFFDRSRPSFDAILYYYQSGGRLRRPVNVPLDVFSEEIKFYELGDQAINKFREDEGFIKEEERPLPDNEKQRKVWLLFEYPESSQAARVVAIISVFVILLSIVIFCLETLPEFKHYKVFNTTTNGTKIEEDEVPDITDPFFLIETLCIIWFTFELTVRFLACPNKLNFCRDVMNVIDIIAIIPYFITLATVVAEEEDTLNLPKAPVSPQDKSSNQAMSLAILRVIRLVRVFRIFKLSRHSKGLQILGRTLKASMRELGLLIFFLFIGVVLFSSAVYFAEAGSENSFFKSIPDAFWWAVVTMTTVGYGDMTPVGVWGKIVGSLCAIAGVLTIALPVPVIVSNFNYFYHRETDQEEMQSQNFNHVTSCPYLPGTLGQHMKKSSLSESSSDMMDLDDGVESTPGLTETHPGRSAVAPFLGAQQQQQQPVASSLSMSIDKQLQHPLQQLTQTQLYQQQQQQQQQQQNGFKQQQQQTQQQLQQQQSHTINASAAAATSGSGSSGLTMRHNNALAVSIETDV", "sequence of UniProt Q704Y3 (whole entry, unmodified, looked up)": "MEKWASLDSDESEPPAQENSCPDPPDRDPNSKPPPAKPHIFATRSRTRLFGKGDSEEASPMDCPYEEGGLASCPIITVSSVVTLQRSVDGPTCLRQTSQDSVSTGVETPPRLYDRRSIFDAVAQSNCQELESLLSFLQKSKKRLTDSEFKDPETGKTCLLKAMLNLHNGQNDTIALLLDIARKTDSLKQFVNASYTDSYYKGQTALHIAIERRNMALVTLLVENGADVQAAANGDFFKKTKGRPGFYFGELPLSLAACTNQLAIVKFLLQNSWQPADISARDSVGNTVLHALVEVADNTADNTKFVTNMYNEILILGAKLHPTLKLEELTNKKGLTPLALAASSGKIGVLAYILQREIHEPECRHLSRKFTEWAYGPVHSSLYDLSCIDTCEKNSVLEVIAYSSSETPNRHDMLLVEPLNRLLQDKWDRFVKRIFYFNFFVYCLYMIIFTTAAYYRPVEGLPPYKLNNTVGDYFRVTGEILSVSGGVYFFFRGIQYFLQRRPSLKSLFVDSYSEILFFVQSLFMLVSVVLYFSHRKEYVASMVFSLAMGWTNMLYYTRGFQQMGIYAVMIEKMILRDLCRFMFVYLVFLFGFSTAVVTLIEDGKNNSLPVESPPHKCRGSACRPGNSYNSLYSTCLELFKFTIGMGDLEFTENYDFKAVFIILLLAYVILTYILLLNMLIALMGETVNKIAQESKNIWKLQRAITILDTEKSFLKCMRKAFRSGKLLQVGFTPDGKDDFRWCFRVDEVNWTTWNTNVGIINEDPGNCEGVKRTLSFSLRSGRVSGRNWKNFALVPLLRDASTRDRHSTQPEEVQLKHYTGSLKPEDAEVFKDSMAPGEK", "sequence of UniProt P00330 (whole entry, unmodified, looked up)": "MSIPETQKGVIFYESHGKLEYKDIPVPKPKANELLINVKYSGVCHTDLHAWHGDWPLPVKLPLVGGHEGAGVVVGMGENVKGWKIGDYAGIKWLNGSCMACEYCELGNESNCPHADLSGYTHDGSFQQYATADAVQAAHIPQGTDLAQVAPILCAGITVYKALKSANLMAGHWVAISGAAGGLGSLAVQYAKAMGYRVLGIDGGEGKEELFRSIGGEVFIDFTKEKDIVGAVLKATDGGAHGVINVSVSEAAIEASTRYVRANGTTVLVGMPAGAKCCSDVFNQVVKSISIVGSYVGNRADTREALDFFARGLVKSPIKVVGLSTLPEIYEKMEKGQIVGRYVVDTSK", "sequence of UniProt P22756 (whole entry, unmodified, looked up)": "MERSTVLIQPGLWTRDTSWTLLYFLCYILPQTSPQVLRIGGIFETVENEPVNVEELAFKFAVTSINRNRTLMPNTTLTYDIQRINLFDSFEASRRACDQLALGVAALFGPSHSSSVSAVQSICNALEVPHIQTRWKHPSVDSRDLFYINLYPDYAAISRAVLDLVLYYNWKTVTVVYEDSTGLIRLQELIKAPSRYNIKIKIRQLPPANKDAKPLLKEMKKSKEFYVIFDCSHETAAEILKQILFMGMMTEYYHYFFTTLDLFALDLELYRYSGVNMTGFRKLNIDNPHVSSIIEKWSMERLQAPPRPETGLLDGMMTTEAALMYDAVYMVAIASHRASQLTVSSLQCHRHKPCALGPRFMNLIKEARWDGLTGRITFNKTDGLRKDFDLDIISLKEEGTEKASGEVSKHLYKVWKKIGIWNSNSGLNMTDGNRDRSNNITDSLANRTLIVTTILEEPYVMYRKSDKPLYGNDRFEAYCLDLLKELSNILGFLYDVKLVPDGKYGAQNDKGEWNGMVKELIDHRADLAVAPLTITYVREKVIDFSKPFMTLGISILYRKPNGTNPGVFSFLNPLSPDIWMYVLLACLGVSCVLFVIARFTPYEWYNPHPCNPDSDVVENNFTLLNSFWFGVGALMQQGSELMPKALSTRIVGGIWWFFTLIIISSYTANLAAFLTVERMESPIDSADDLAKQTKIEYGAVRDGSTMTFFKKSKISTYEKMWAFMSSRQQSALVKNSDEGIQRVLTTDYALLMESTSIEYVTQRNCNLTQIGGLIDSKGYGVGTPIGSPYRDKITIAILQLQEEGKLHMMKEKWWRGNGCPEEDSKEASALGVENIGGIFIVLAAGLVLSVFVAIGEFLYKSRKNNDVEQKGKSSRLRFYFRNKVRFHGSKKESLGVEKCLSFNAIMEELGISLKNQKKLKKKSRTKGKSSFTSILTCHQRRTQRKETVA", "sequence of UniProt P14779 (whole entry, looked up)": "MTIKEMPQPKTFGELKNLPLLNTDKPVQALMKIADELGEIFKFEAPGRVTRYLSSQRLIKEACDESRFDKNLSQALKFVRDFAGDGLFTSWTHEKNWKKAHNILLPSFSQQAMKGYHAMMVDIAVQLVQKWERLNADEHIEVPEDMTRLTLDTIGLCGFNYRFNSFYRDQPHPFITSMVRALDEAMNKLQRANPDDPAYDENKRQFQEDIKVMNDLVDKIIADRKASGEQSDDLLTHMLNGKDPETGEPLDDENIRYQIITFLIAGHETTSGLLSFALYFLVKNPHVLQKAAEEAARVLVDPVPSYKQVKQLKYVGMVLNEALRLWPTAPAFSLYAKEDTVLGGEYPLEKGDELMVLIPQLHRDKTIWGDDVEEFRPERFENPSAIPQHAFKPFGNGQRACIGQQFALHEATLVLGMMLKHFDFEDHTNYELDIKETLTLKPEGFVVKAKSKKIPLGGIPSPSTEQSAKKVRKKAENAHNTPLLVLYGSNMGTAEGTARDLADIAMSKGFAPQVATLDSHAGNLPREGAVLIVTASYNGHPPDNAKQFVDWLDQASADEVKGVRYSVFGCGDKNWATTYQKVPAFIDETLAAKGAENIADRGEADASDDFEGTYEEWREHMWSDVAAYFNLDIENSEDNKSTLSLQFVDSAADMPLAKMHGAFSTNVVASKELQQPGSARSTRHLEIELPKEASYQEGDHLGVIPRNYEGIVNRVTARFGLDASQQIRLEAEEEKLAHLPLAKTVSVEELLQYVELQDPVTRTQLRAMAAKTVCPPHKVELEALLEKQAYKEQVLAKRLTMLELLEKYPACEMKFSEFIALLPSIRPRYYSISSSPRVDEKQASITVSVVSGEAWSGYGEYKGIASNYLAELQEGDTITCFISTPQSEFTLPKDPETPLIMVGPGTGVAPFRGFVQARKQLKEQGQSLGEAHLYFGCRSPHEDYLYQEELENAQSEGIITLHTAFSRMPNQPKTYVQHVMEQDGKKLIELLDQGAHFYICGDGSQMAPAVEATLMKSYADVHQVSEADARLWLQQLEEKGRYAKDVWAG", "sequence of UniProt P46098 (whole entry, looked up)": "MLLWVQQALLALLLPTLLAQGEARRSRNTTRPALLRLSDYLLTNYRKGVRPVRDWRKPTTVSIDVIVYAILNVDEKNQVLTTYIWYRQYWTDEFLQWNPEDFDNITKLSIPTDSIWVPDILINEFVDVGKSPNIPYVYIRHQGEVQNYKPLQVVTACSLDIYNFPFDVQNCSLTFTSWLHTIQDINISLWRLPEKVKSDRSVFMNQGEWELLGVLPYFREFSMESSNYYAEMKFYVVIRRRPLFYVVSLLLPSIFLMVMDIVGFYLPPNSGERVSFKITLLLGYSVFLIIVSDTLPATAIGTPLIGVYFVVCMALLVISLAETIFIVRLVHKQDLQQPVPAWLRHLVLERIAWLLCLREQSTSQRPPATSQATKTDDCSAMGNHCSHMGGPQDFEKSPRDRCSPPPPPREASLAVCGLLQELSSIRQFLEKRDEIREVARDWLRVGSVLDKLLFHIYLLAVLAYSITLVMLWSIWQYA", "sequence of UniProt P49888 (whole entry, looked up)": "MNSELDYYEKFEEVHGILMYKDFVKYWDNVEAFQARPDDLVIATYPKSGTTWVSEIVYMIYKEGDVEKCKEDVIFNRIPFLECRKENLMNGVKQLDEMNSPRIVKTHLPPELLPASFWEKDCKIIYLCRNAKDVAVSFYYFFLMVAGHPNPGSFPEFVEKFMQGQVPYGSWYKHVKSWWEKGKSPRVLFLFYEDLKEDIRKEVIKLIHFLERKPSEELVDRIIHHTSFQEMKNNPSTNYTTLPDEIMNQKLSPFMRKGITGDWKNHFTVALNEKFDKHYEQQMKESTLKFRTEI"}
{"SMILES": "Nc1nc2c(ncn2[C@@H]2O[C@@H]3COP(=O)(O)O[C@H]4[C@@H](O)[C@H](n5cnc6c(=O)[nH]c(N)nc65)O[C@@H]4COP(=O)(O)O[C@H]3[C@H]2O)c(=O)[nH]1", "tested on": "Cell cycle histidine kinase CckA, cytoplasmic region (Caulobacter vibrioides, UniProt Q9X688)", "test": "isothermal titration calorimetry", "conditions": "concentration not given, together with: ADP 5 mM", "measurement": "binding enthalpy (ΔH)", "value": "4.9 ± 0.118 kcal/mol"}
{"SMILES": "CC[C@H](CO)Nc1nc(NCc2ccc(-c3ccccn3)cc2)c2ncn(C(C)C)c2n1", "tested on": "DYRK1B (Homo sapiens, UniProt Q9Y463)", "test": "KINOMEscan competition binding", "conditions": "10 µM, primary screen", "scale": "direction not given", "measurement": "binding score", "value": 4.8}
{"SMILES": "CC/C=C\\C/C=C\\C/C=C\\C/C=C\\C/C=C\\CCCC(=O)O", "tested on": "cyp102A1 (Bacillus megaterium, UniProt P14779)", "test": "substrate, item: 17,18-EEQ", "conditions": "30 s, together with: NADPH 0.5 mM", "measurement": "formation rate", "value": "2.57 ± 0.09 µmol/min/nmol BM3"}
{"SMILES": "NC(CC1(C(=O)O)CC2OC(CO)C(O)C(N)C2O1)C(=O)O (stereo not drawn)", "tested on": "Glutamate receptor ionotropic, kainate 1 (Rattus norvegicus, UniProt P22756, del402-416)", "test": "glutamate-evoked current, patch clamp", "conditions": "concentration not given, 30 s application", "measurement": "recovered plateau current amplitude", "value": "69%"}
{"SMILES": "C[C@H]1CN(c2n[nH]c3nc(N[C@H]4CC[C@H](NS(=O)(=O)CCC(F)(F)F)CC4)ncc23)CCO1", "tested on": "MAPK14 (Homo sapiens, UniProt Q16539)", "test": "Kinobeads competition", "system": "HEK293, K562, placenta lysate", "conditions": "20 µM, unit not given", "scale": "relative to: vehicle", "measurement": "remaining binding", "value": 0.22}
{"SMILES": "CCN(CC)CCCC[C@H](NC(=O)[C@H](CC(C)C)NC(=O)[C@H](C)NC(=O)[C@H](Cc1ccccc1)NC(=O)c1ccc(C(C)(C)C)cc1)C(=O)N[C@@H](CO)C(=O)OC", "tested on": "TACR3 (Homo sapiens, UniProt P29371)", "test": "antagonist, radioligand binding", "conditions": "10 µM", "scale": "relative to: control binding", "measurement": "specific binding", "value": "92.4%"}
{"SMILES": "CC[C@@H](C)[C@@H](NC(=O)[C@@H](Cc1ccc(O)cc1)NC(=O)[C@H]1CCCN1C(=O)[C@@H](CCCNC(=N)N)NC(=O)[C@H](N)Cc1c[nH]cn1)C(=O)N[C@H](C)C(=O)N[C@H](Cc1c[nH]cn1)C(=O)N[C@H](CCCNC(=N)N)C(=O)N[C@H](CCCCNC(=O)c1cccc(S(=O)(=O)F)c1)C(=O)N[C@H](Cc1ccc(O)cc1)C(=O)N[C@H](CO)C(=O)N[C@H](Cc1ccccc1)C(N)=O", "tested on": "Transferrin receptor protein 1 (Tfrc, Mus musculus, UniProt Q62351)", "test": "flow cytometry", "system": "B16", "conditions": "2 h, unit not given", "scale": "relative to: 0 h", "measurement": "surface TFRC expression", "value": 0.873}
{"SMILES": "COc1cc(Nc2ncc(F)c(Nc3ccc4c(n3)NC(=O)C(C)(C)O4)n2)cc(OC)c1OC", "tested on": "LATS1 (Homo sapiens, UniProt O95835)", "test": "KINOMEscan", "conditions": "10 µM", "measurement": "inhibition", "value": "39%"}
{"SMILES": "[2H]c1c([2H])c([C@]2([2H])CCCN2C(=O)C(C)(C)Oc2ccc3cn[nH]c3c2)c([2H])c([2H])c1C([2H])([2H])[2H]", "tested on": "CDC42BPG (Homo sapiens, UniProt Q6DT37)", "test": "KINOMEscan", "conditions": "1 µM", "scale": "relative to: DMSO control", "measurement": "remaining binding", "value": "91%"}
{"SMILES": "COc1ccc(N2C(=O)N(c3c(C)cccc3Cl)Cc3cnc(Nc4ccc(C5CCN(C)CC5)cc4OC)nc32)nc1", "tested on": "PAK5 (Homo sapiens, UniProt Q9P286)", "test": "kinase activity", "conditions": "0.5 µM", "measurement": "inhibition", "value": "7%"}
{"SMILES": "CC(C)(C)[C@]1(O)CC2OC(=O)CC23C(=O)OC2OC(=O)[C@H](O)C231 (stereo partly drawn)", "tested on": "Rdl (Drosophila melanogaster, UniProt P25123)", "test": "ion current, inhibitor, two-electrode voltage clamp", "conditions": "IC50, together with: GABA at EC50", "measurement": "time constant of onset", "value": "3.7 ± 0.4 s"}
{"SMILES": "COc1cc(N)c(Cl)cc1C(=O)NC1CN2CCC1CC2 (stereo not drawn)", "tested on": "GPR55 (Homo sapiens, UniProt Q9Y2T6)", "test": "β-arrestin recruitment, TANGO luminescence", "conditions": "concentration not given", "scale": "relative to: basal luminescence", "measurement": "log2 fold change", "value": 0.167}
{"SMILES": "CN1CCN(c2cc(-c3ccncc3)c(-c3ccc4ccccc4c3)nn2)CC1", "tested on": "GPR39 (Homo sapiens, UniProt O43194)", "test": "agonist, FLIPR", "conditions": "12.5 µM", "measurement": "activation", "value": "-0.6%"}
{"SMILES": "CCCCC/C=C\\C/C=C\\C/C=C\\C/C=C\\CCCC(=O)NCCO", "tested on": "Trpv1 (Mus musculus, UniProt Q704Y3, S513A)", "test": "ion current, agonist, whole-cell patch clamp", "scale": "relative to: 3 mM 2-APB current", "measurement": "maximal open probability", "value": "0.98 ± 0.22"}
{"SMILES": "O=C(Oc1ccc([N+](=O)[O-])cc1)N1CCC(C(O)(c2ccc3c(c2)OCO3)c2ccc3c(c2)OCO3)CC1", "tested on": "human coronavirus OC43", "test": "virus-induced cell killing", "system": "MRC-5", "conditions": "screen", "measurement": "maximum inhibition", "value": "19.5%"}
{"SMILES": "O=C(CF)N[C@H]1[C@H]([C@H](O)[C@H](O)CO)O[C@@](OC[C@H]2O[C@@H](Oc3ccc([N+](=O)[O-])cc3)[C@H](O)[C@@H](O)[C@H]2O)(C(=O)O)C[C@@H]1O", "tested on": "Sialidase-2 (Homo sapiens, UniProt Q9Y3R4)", "test": "substrate", "conditions": "10 min, pH 5.0, 37 °C", "measurement": "kcat", "value": "0.11 ± 0.01 s⁻¹"}
{"SMILES": "CCN(CC)C(=S)SSC(=S)N(CC)CC", "tested on": "RNMT (Homo sapiens, UniProt O43148)", "test": "yeast growth", "system": "Saccharomyces cerevisiae", "conditions": "30 °C, 1% DMSO, together with: 5-FOA", "measurement": "IC50", "value": "15.2 µM"}
{"SMILES": "Nc1ccn([C@H]2CC[C@@H](CO)O2)c(=O)n1", "tested on": "human coronavirus OC43", "test": "virus-induced cell killing", "system": "MRC-5", "conditions": "screen", "measurement": "maximum inhibition", "value": "14.5%"}
{"SMILES": "Oc1cc(Br)cc(Br)c1Oc1ccc(Br)cc1Br", "tested on": "SULT1E1 (Homo sapiens, UniProt P49888)", "test": "sulfonation, substrate", "measurement": "Vmax/Km", "value": "137 µL/min/mg"}
{"SMILES": "O=C(Cc1cccc([N+](=O)[O-])c1)NC1CCCC1", "tested on": "Regulatory protein SdiA (sdiA, Escherichia coli, UniProt P07026)", "measurement": "Emax", "value": "103%"}
{"SMILES": "CN(C(=O)n1cnc(-c2ccc[n+]([O-])c2)c1)C1CCCCC1", "tested on": "HTR3A (Homo sapiens, UniProt P46098)", "test": "radioligand binding", "conditions": "10 µM, together with: [3H]GR-65630", "measurement": "inhibition", "value": "10%"}
{"SMILES": "CC=O", "tested on": "ADH1 (Saccharomyces cerevisiae, UniProt P00330, H49Q)", "test": "enzyme activity, substrate", "conditions": "pH 7.3", "scale": "relative to: wild type", "measurement": "catalytic efficiency decrease", "value": "10 fold"}
{"SMILES": "O=C(c1ccc(Cl)cc1)N1CCN2C(=O)N(OC(=O)N3CCOc4ccccc43)C(=O)C2C1 (stereo not drawn)", "tested on": "GSTO1 (Homo sapiens, UniProt P78417)", "test": "MS-based ABPP", "system": "SW-620 conditioned medium", "conditions": "10 µM", "scale": "relative to: compound over DMSO, lower = more inhibition", "measurement": "median protein ratio", "value": 1.12}
{"SMILES": "O=C(Nc1cccc(OS(=O)(=O)c2ccc(Cl)cc2)c1)c1ccc2ncccc2c1", "tested on": "P2Y purinoceptor 1 (Meleagris gallopavo, UniProt P49652)", "test": "receptor activation, antagonist, calcium mobilization", "system": "1321N1 cells expressing P2Y1 receptor", "conditions": "100 µM, together with: ADP 500 nM", "scale": "relative to: ADP alone", "measurement": "activity", "value": "~65%"}
{"SMILES": "CCN(CC)CCNC(=O)c1[nH]c2ccccc2c1Sc1ccc(Cl)cc1", "tested on": "Vero-E6", "test": "CellTiter-Glo ATP", "conditions": "concentration not given, 72 h, second round 5-point", "scale": "relative to: DMSO 0%, hyamine -100%, more negative, more toxic", "measurement": "cytotoxicity efficacy", "value": "0%"}
{"SMILES": "CCOC(=O)CC(SP(=O)(OC)OC)C(=O)OCC (stereo not drawn)", "tested on": "uncharacterized protein (Anopheles coluzzii, UniProt A0A6E8VQK1)", "test": "enzyme activity, inhibitor", "system": "Sf9 cell homogenate", "conditions": "22.94 µM, 0.1667 h, together with: α-naphthyl acetate substrate", "scale": "relative to: no inhibitor", "measurement": "remaining activity", "value": "2.95%"}
{"SMILES": "O=C(Nc1cnccc1Cl)N1CCN(Cc2ccc3c(c2)OC(F)(F)O3)CC1", "tested on": "EGF receptor", "conditions": "concentration not given", "measurement": "inhibition", "value": "-7% and -1%"}
{"SMILES": "O=C(O)COP(=O)(O)O", "tested on": "Triosephosphate isomerase (TPI1, Gallus gallus, UniProt P00940, G210A/S211G/Y208T)", "test": "enzyme activity, competitive inhibitor, GPDH/NADH-coupled", "conditions": "pH 5.7, 25 °C, ionic strength 0.1 NaCl, together with: glyceraldehyde 3-phosphate substrate", "scale": "relative to: mutant over wild type", "measurement": "Ki ratio", "value": 1610}
{"SMILES": "CSCC[C@H](N)C(=O)N[C@@H](C)C(=O)N[C@@H](C)C(=O)N[C@H](C(=O)N[C@@H](C)C(=O)NCC(=O)N[C@@H](CC(C)C)C(=O)N[C@@H](Cc1ccc(O)cc1)C(=O)NCC(=O)N[C@@H](CC(C)C)C(=O)NCC(=O)N[C@@H](CCC(=O)O)C(=O)N[C@@H](CC(=O)O)C(=O)N[C@@H](CCCNC(=N)N)C(=O)N[C@@H](CCC(N)=O)C(=O)N[C@@H](Cc1c[nH]cn1)C(=O)N[C@@H](CCCNC(=N)N)C(=O)N[C@@H](CCCCN)C(=O)N[C@@H](CCCCN)C(=O)N[C@@H](CCC(N)=O)C(N)=O)C(C)C", "tested on": "Sh, DEL6-46 (Drosophila melanogaster, UniProt P08510)", "test": "ion current, blocker, inside-out patch clamp", "conditions": "+70 mV", "measurement": "Hill coefficient", "value": 0.87}
{"SMILES": "O=C(NNC(=O)c1csnn1)c1ccc(Cl)cc1", "tested on": "Acetyl-CoA synthetase (Cryptococcus neoformans, UniProt J9VFT1)", "conditions": "391 nM", "measurement": "remaining activity", "value": "90.4%"}
{"note": "Some of these lines once more:"}
{"SMILES": "Nc1nc2c(ncn2[C@@H]2O[C@@H]3COP(=O)(O)O[C@H]4[C@@H](O)[C@H](n5cnc6c(=O)[nH]c(N)nc65)O[C@@H]4COP(=O)(O)O[C@H]3[C@H]2O)c(=O)[nH]1", "tested on": "Cell cycle histidine kinase CckA, cytoplasmic region (Caulobacter vibrioides, UniProt Q9X688)", "test": "isothermal titration calorimetry", "conditions": "concentration not given, together with: ADP 5 mM", "measurement": "binding enthalpy (ΔH)", "value": "4.9 ± 0.118 kcal/mol"}
{"SMILES": "CC[C@H](CO)Nc1nc(NCc2ccc(-c3ccccn3)cc2)c2ncn(C(C)C)c2n1", "tested on": "DYRK1B (Homo sapiens, UniProt Q9Y463)", "test": "KINOMEscan competition binding", "conditions": "10 µM, primary screen", "scale": "direction not given", "measurement": "binding score", "value": 4.8}
{"SMILES": "CC/C=C\\C/C=C\\C/C=C\\C/C=C\\C/C=C\\CCCC(=O)O", "tested on": "cyp102A1 (Bacillus megaterium, UniProt P14779)", "test": "substrate, item: 17,18-EEQ", "conditions": "30 s, together with: NADPH 0.5 mM", "measurement": "formation rate", "value": "2.57 ± 0.09 µmol/min/nmol BM3"}
{"SMILES": "NC(CC1(C(=O)O)CC2OC(CO)C(O)C(N)C2O1)C(=O)O (stereo not drawn)", "tested on": "Glutamate receptor ionotropic, kainate 1 (Rattus norvegicus, UniProt P22756, del402-416)", "test": "glutamate-evoked current, patch clamp", "conditions": "concentration not given, 30 s application", "measurement": "recovered plateau current amplitude", "value": "69%"}
